Assay results gathered from unrelated publications.
Every numbered part comes from another study and shows a few of its results, in no order.

Study 1
Target: Histone acetyltransferase KAT6A, winged helix 1, GST fusion (KAT6A, Homo sapiens, UniProt Q92794, residues 1-85)
Method: protein binding microarray
Molecule type: double-stranded DNA, one strand shown
Medium: in vitro
Tested at: not given
Setting: 8-mer, flanks averaged, mean of 2 arrays, mostly near background
Reference: not given
Reading: higher = stronger binding
Target sequence (chain): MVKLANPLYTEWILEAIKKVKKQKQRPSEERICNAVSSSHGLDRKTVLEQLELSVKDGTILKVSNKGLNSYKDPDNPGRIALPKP
Sequence | E-score
GCTCATCA | -0.158
GAGGTACA | -0.152
AATCACCT | -0.103
AGGTCTGC | 0.0523
CTTGGAGA | -0.178
ACTCGCCG | 0.303
AGCCAAGC | -0.117
CCCCACAC | -0.187
CCGTAGAA | 0.128
AGGGGCTC | -0.141
AAGTCGAA | -0.233
ACACAGTC | -0.17
CTCCTGGA | -0.2
TTATCGAA | 0.000825
ATAGCCTC | 0.0668
GACCTCAA | -0.254

Study 2
Target: Ras GTPase-activating protein-binding protein 1, RRM domain (G3BP1, Homo sapiens, UniProt Q13283)
UniProt Q13283, sequence (whole entry, looked up): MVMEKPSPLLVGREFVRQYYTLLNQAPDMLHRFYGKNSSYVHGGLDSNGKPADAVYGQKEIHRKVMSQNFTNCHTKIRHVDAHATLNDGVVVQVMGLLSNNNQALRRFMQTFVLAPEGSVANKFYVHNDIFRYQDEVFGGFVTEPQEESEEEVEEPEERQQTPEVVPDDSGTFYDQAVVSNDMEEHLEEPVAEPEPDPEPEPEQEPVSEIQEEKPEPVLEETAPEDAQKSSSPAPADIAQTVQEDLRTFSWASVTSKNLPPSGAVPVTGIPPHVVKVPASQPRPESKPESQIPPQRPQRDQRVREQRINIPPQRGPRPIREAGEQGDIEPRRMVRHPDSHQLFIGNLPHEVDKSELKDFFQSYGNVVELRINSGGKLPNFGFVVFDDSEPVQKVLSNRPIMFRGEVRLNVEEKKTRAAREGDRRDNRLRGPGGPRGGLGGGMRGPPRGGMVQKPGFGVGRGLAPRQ
Method: RNA Bind-n-Seq
Molecule type: RNA
Medium: in vitro
Tested at: 1 µM
Setting: whole 134-nt RNA, ends assumed
Added: 150 mM KCl
Reference: input library
Reading: higher = stronger binding
Constant ends, left off below: GGGAGUUCUACAGUCCGACGAUC … UGGAAUUCUCGGGUGUCAAGG
Sequence | log2 enrichment
UUUCCCCUGGAGGGCGCCUCCAUCCUUGGAGGCCUAGUGCCGUCGGAGAGAGAGCGGGAGCCGCGGACAGAGACGCGUGCGCAAUUCGGA | -1.43
AGUGGGUUUGUUGAAGCAGUUGCUGGUGCAACAGCUAGGUUUGACUGAGAAGAGCGUUCAGGAAGACUGGCAACAUUUCCCAAGAUACAG | -0.257
ACCAUGCAGGUGGGCAUCUUUGGGAAGUGGGGCAAGGGGGGGAUAGGGAGGGGGAAAACACUUUGGGAACAGGUGGUCCCAGGUCGUUUC | -0.348
AAGUCCUGUGCUACACAUCGUAUGUACCGAAUCGGGGUUUGGGGAAAGGGGUGGGGAAAGUAUUAUGUUACGCCGUUCGGAUCUGCACUU | 0.972
GUCCUGUGCUACACAUCGUAUGUACCGAAUCGGGUUUUUUUGGGUGGGAAAAAAAGGGAAAGUAUUAUGUUACGCCGUUCGGAUCUGCAC | 0.00853
GUCCUGUGCUACACAUCGUAUGUACCGAAUCGGGAAAAAAGGAAAAAAGGGAAAAAAGGAAAGUAUUAUGUUACGCCGUUCGGAUCUGCA | 0.054
GCAGGAAGUAAAAACCAAUGGAAAUGCUUCGGAUAGUGGCAGGGGUGGGGGUUGCUAAGGAAAGGGUGGGAUGGGAGUGGGUAAAGAGUU | 1.51
CACAGACAACACGCACCCACACAGACACAGAGGGAAGGGGAAAGGAUGGGGACAGGGUGCACAGCAGGGCGGGGUAGGACCCCAGCCCCU | -0.17
UUCCUCAAGUCCUGUGCUACACAUCGUAUGUACCGAAUCGGUGGUGGUGGAAAGUAUUAUGUUACGCCGUUCGGAUCUGCACUUCCAGCA | -0.201

Study 3
Target: Prothrombin, mature alpha-thrombin (F2, Homo sapiens, UniProt P00734)
Method: aptamer microarray, sandwich
Molecule type: DNA with 2'F-ANA
Medium: in vitro
Tested at: 200 nM
Setting: whole 15-mer aptamer, many near background
Added: Cy3 exosite-II aptamer, 400 nM
Reading: higher = stronger binding
Sequence: GGTTGGTGTGGTTGG
Modification | mean fluorescence intensity
2'F-ANA at 1 2 3 5 7 9 10 13 14 15 | 43.5 a.u.
2'F-ANA at 2 4 5 6 7 9 11 13 14 15 | 52.8 a.u.
2'F-ANA at 1 5 6 7 10 11 14 15 | 48.3 a.u.
2'F-ANA at 3 6 7 10 11 12 15 | 518 a.u.
2'F-ANA at 1 5 6 8 9 14 15 | 49.4 a.u.
2'F-ANA at 1 3 5 6 8 9 14 15 | 46.3 a.u.
2'F-ANA at 1 2 8 9 10 12 13 | 88.1 a.u.
2'F-ANA at 1 3 4 5 6 7 8 10 11 13 15 | 50.5 a.u.
2'F-ANA at 1 3 7 9 10 11 12 14 15 | 63.6 a.u.
2'F-ANA at 1 2 4 9 10 11 13 14 15 | 45.6 a.u.
2'F-ANA at 2 4 6 8 9 10 13 14 | 76.7 a.u.
2'F-ANA at 1 3 6 8 9 10 12 13 15 | 100 a.u.
2'F-ANA at 3 4 6 7 9 | 577 a.u.
2'F-ANA at 1 2 3 4 6 7 8 11 13 14 15 | 63.7 a.u.
2'F-ANA at 3 4 8 9 10 13 14 15 | 195 a.u.
2'F-ANA at 1 4 5 6 7 8 9 10 11 14 | 45.4 a.u.
2'F-ANA at 6 7 11 13 14 15 | 153 a.u.
2'F-ANA at 1 2 4 7 8 9 10 12 13 | 55.4 a.u.
2'F-ANA at 2 3 4 5 6 7 10 12 13 | 52.7 a.u.
2'F-ANA at 1 3 5 6 7 8 9 10 11 13 15 | 53.7 a.u.
2'F-ANA at 1 4 6 8 9 11 12 13 14 15 | 54.4 a.u.
2'F-ANA at 1 9 11 12 13 14 15 | 64.6 a.u.
2'F-ANA at 1 2 4 5 6 9 10 11 12 15 | 55.9 a.u.

Study 4
Target: Sal-like protein 4, full length isoform B (SALL4, Homo sapiens, UniProt Q9UJQ4-2, residues 1-616)
Method: universal PBM
Molecule type: double-stranded DNA, one strand shown
Medium: in vitro
Tested at: not given
Setting: 8-mer, flanks averaged, mean of replicates
Reading: higher = stronger binding
Residues (chain): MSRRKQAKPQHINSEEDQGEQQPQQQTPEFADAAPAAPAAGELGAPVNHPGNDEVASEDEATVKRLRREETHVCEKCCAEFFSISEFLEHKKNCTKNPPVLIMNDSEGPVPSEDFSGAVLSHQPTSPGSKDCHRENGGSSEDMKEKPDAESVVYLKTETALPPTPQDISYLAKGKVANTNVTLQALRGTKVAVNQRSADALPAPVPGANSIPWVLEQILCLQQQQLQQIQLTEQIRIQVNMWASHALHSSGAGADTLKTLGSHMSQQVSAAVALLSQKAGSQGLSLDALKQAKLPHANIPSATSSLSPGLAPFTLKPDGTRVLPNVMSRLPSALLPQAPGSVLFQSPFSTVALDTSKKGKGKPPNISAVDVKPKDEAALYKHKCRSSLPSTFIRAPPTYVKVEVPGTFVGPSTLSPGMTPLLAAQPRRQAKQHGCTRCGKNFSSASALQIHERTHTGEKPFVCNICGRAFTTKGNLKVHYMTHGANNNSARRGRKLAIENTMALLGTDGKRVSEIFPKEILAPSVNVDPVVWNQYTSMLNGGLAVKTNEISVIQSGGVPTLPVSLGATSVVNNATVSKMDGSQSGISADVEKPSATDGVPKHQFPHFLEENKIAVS
Sequence | E-score
ACCGTAAC | 0.0105
CGGCTGTC | -0.266
CTGCATCC | -0.209
GGCTGTCA | -0.182
GCCCTAGA | -0.216
CACGGCAC | -0.18
GGCCTGCA | -0.367
GCGGCGCA | -0.137
AGATGACC | -0.135
CCTAAGAC | -0.194
GTACGCGA | -0.0524
ATTCTTCG | 0.117
ACCTCACT | -0.00039
CAACTTTC | 0.104
AGTATCAA | 0.0987
GTACTGAC | -0.0012
CGAGGTTA | -0.0149

Study 5
Target: RNA binding protein fox-1 homolog 2, RRM domain, GST-SBP tag (RBFOX2, Homo sapiens, UniProt O43251-10, residues 100-194)
Method: RNA Bind-n-Seq
Molecule type: RNA
Medium: in vitro
Tested at: 365 nM
Setting: natural RNA segment, single round, ends assumed
Reference: no-protein control
Reading: higher = stronger binding
Constant ends, left off below: GGGAGUUCUACAGUCCGACGAUC … UGGAAUUCUCGGGUGCCAA
Target sequence (chain): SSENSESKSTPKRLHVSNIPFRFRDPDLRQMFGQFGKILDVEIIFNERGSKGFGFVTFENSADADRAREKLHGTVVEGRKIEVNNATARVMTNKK
Sequence | RBNS enrichment (R)
AUCAGCAGUGAUGGAAUUUGCUGGAGGACUAGGCCAGAGCAAGCCUCACUGCCACUGUGCCUUUGGGGCACCCUUGGGGUUGGACAUACACCCCCUUUAGAUUCCUCUGU | 0.339
AUUGUGUGAACCACUCUUAGCAGGCAUUGCUACUGGAUUCUUAACUAGAGAAAACUUACAGAACAGGUGUUAAGCCUUUUCCAAUAUUUAGUAUUGUAGUCUUCAUAGAA | 0.246
AGGAAAGACUGAUACAGAACGAUCGAUACAGAAACCACGCUGCCGCCACCACACCAUCACCAUCGACAGAACAGUCCUUAAUCCAGAAACCUGAAAUGAAGGAAGAGGAG | 0.502
GCCUUCCUUUUCUAGGGCCAAACUCCUCUCCAAAUACUAGGUUGGGUUCAUUUAUCUUUUAAGGAGUUUUACUUUUCUCUCCAGAGGGACCAGGUCUUCUUAUGCAGUGA | 0.6
UGCUGACUCUCCUUCAACAUCCUCACCCCCACCCCUGGGCACCAUUUAGGACAAGACUUCCUUAUUUAUCAAUUACUUGAUUUAUCUUCUCAGGACUCAUUGUUCCACCC | 0.522
GUUUUUGUUCUUUUUCUGAAGGUGGGGAGGGGAAUAUUCAUAUUGACUUUAUAUUUAAUACAUCUGCUGAUGCUUCGGGGCAUGUCCUGCCACAGGAUUUGCUAAUGUCU | 0.87
GUAAUCCCAAGUAUACAGGAAAUUGUGGGGUAGGCUGUCUCUCGUGAAUUGAGUUCUGCUGGGGCUAUAGAGCAUCGGGUCGGCAGCUGUCAUUCCCAGCUCUGUGACCU | 0.617
UGCAGCAGCCCAGCUGUGUUUCUCAUUGAUGAUAAUAGUAGGCUCUACUGCCCUCCCCUCCCCUAUCCAAGUAGCAGUUAAGUUCCAUCCAAAUACGUGGGACUCAAAGA | 0.525

For quick reference, copied from above (study 4):
Sequence | E-score
GGCCTGCA | -0.367
ACCGTAAC | 0.0105
GCCCTAGA | -0.216
CGAGGTTA | -0.0149
CGGCTGTC | -0.266
